Experimental data gathered from unrelated publications.
Numbered parts are unrelated; each lists some results of a single study.

Study 1 — cell line: HEK-293T/ACE2; concentration: concentration not given; time: 16 (unit not given); baseline: vehicle
Structure (SMILES) | viability [%]
CC(=O)O[C@]1(C(C)=O)CC[C@H]2[C@@H]3C=C(C)C4=CC(=O)CC[C@]4(C)[C@H]3CC[C@@]21C | 98.8
CC(=O)OCC(=O)[C@@]1(O)CC[C@H]2[C@@H]3CCC4=CC(=O)CC[C@]4(C)[C@H]3C(=O)C[C@@]21C | 104
O=C(O)[C@@H](S)[C@@H](S)C(=O)O | 86.2

Study 2 — effect on: enzyme activity; action: inhibitor; concentration: 20 µM; notes: hit confirmation
Target: Replicase polyprotein 1ab, main protease (rep, Severe acute respiratory syndrome coronavirus 2, UniProt P0DTD1)
SMILES | inhibition [%]
O=C1C(Cl)=C(Cl)C(=O)C(Cl)=C1Cl | 110
CCC[C@H](NC(=O)/C(C#N)=C/c1cccc(Br)n1)c1ccccc1 | 59.4
Nc1cc(-c2ccncc2)c[nH]c1=O | 40.6

Study 3 — technique: protein binding microarray; molecule type: double-stranded DNA, one strand shown; medium: in vitro; concentration: not given; baseline: not given; reading: higher = stronger binding
Target: Histone acetyltransferase KAT6A, winged helix 2, GST fusion (KAT6A, Homo sapiens, UniProt Q92794, residues 85-181)
Notes: 8-mer, flanks averaged, mean of 2 arrays, mostly near background
Target sequence (chain): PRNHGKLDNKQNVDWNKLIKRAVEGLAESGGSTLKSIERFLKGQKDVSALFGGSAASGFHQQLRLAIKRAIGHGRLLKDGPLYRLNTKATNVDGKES
Oligonucleotide | E-score
CTATCAAA | -0.0162
ACACGGTC | 0.011
CATGGTCG | 0.0411
ACAATCGT | -0.173
GACCGGGC | 0.0262
AGCCCATA | -0.157
CCAATAGC | -0.111
AGTGCATG | 0.0184

Study 4 — technique: universal PBM; molecule type: double-stranded DNA, one strand shown; medium: in vitro; concentration: not given; reading: higher = stronger binding
Target: Sal-like protein 4, full length isoform B (SALL4, Homo sapiens, UniProt Q9UJQ4-2, residues 1-616)
Notes: 8-mer, flanks averaged, mean of replicates
Oligonucleotide | E-score
GCGGCTGA | -0.291
CGTAGACG | -0.213
AAGACGAC | 0.0177
ACACACCA | 0.0126
GATCTAGC | -0.181
AAATAAGT | 0.264
CACCAAAC | 0.00838
AGCAGGGA | -0.165

Study 5 — action: inhibitor; concentration: 20 µM
Target: Replicase polyprotein 1ab, nsp13 helicase (rep, Severe acute respiratory syndrome coronavirus 2, UniProt P0DTD1)
SMILES | inhibition
O=c1cc(N2CCNCC2)oc2c(-c3ccccc3)cccc12 | 3.4%
CNC(=O)O[C@H]1COc2ccc(N3CCN(C4COC4)CC3)cc2[C@@H]1NC(=O)c1ccc(F)cc1 | 2.83%
C[C@]1(O)C[C@@H](c2nc(-c3ccc4ccc(-c5ccccc5)nc4c3)c3c(N)nccn32)C1 | 7.99%
CC(C)(C)OC(=O)c1ncn2c1[C@@H]1CCCN1C(=O)c1c(Br)cccc1-2 | 3.21%
C#Cc1cccc(Nc2ncnc3cc4c(cc23)OCCOCCOCCO4)c1 | 5.73%
O=C1CN=C(c2cccc(Br)c2)c2oc3ccccc3c2N1 | 10.5%
Clc1ccccc1CNC[C@H]1CC[C@H](CNCc2ccccc2Cl)CC1 | -0.91%
CC(C)OC(=O)C(C)(C)Oc1ccc(C(=O)c2ccc(Cl)cc2)cc1 | -4.32%
NCC[C@H](O)C(=O)N[C@@H]1C[C@H](N)[C@@H](O[C@H]2O[C@H](CN)[C@@H](O)[C@H](O)[C@H]2O)[C@H](O)[C@H]1O[C@H]1O[C@H](CO)[C@@H](O)[C@H](N)[C@H]1O | 0.91%
COc1cc(-n2cnc3cc(-c4ccc(Cl)cc4)sc3c2=O)ccc1OCCN1CCCC1 | 5.37%
O=C(NCCN1CCC2(CC1)C(=O)NCN2c1cccc(F)c1)c1ccc2ccccc2c1 | -1.87%
O=C(O)CCCCC(=O)O | -3.94%
CCOC(=O)[C@H](Cc1ccc([N+](=O)[O-])cc1)NC(=O)c1ccccc1 | 1.87%
O=C(Nc1ccc(Cl)nc1)c1ccc(Cl)cc1 | 4.28%
C=C1/C(=C\C=C2/CCC[C@]3(C)[C@@H]([C@H](C)/C=C/[C@H](C)C(C)C)CC[C@@H]23)C[C@@H](O)C[C@@H]1O | -4.92%
CC1=C(C(=O)O)N2C(=O)[C@@H](NC(=O)[C@H](N)c3ccccc3)[C@H]2SC1 | 5.41%
CN(C)c1cc(NC(=O)CNC(C)(C)C)c(O)c2c1C[C@H]1C[C@H]3[C@H](N(C)C)C(O)=C(C(N)=O)C(=O)[C@@]3(O)C(O)=C1C2=O | 12.7%
CCC1(c2c[nH]cn2)Cc2ccccc2C1 | 5.31%
CC(=O)O/N=C1\C(=O)N(Cc2cc(Cl)ccc2Cl)c2ccc(Cl)cc21 | 2.16%
CN(C)c1nc(N(C)C)nc(N(C)C)n1 | 4.19%
CC(C)[C@H](CO)Nc1nc(Nc2cccc(Cl)c2)c2ncn(C(C)C)c2n1 | -6%
COc1ccc(C(=O)C2CCN(CC(=O)N(Cc3nc4c(c(=O)[nH]3)COCC4)CC3CC3)CC2)cc1 | 4.93%

Some of these lines once more (study 5):
SMILES | inhibition
CC(C)[C@H](CO)Nc1nc(Nc2cccc(Cl)c2)c2ncn(C(C)C)c2n1 | -6%
C=C1/C(=C\C=C2/CCC[C@]3(C)[C@@H]([C@H](C)/C=C/[C@H](C)C(C)C)CC[C@@H]23)C[C@@H](O)C[C@@H]1O | -4.92%
CCC1(c2c[nH]cn2)Cc2ccccc2C1 | 5.31%
CC(C)OC(=O)C(C)(C)Oc1ccc(C(=O)c2ccc(Cl)cc2)cc1 | -4.32%
CN(C)c1cc(NC(=O)CNC(C)(C)C)c(O)c2c1C[C@H]1C[C@H]3[C@H](N(C)C)C(O)=C(C(N)=O)C(=O)[C@@]3(O)C(O)=C1C2=O | 12.7%
CCOC(=O)[C@H](Cc1ccc([N+](=O)[O-])cc1)NC(=O)c1ccccc1 | 1.87%
